Experimental data gathered from unrelated publications.
Lines come from different studies, so protocols differ. “And” joins repeats or separate records; there may be more than shown. ± gives the spread as reported.

`Cc1c(C)n(Cc2cccc(OC(C)(C)C(=O)O)c2)c2ccc(C(=O)N[C@@H](C)c3ccc(C(C)(C)C)cc3)cc12` — result for “bone marrow fat volume”: 0 mm3 (C57BL/6 mouse, diet-induced obesity, L4 vertebra; dose not given).
The blood glucose of `COc1cc(O)c(CC=C(C)C)c(O)c1C(=O)/C=C/c1ccc(O)cc1` is reported as 298 mg/dL (glucose tolerance test; male Tac:SW conventional mice, high-fat diet; in diet, 60 mg/kg/day, 10 weeks, 60 min after glucose load).
`CSCCNc1nc(SCCC(F)(F)F)nc2c1ncn2[C@@H]1O[C@H](COP(=O)(O)OP(=O)(O)C(Cl)(Cl)P(=O)(O)O)[C@@H](O)[C@H]1O`: “patients with IPA above 80%” 0% (platelet aggregation, light transmission aggregometry; human patients, platelet-rich plasma; dose not given, 3 h, together with: TRAP 15 µM).
Under “log2 fold change”, `c1ccc(-c2n[nH]cc2-c2ccnc3ccccc23)nc1` is recorded as 1.02 (kinase binding, competitor, MIB/MS competition, item: NIK1; Candida albicans cell lysate; 10 µM; relative to: DMSO).
`COc1ccccc1[C@H](Cn1c(=O)n(C(C)(C)C(=O)O)c(=O)c2c(C)c(-c3ncco3)sc21)OC1CCOCC1` — result for “fractional hepatic DNL”: 10.5 % new palmitate ([1-13C]acetate infusion, isotopomer analysis; overweight or obese healthy men, plasma VLDL-TG palmitate; oral, 20 mg single dose, 6 h post-dose, together with: oral fructose).
`CCOc1c([C@H](C)n2nc(C)c3c(N)ncnc32)cc(Cl)c(F)c1[C@@H]1CNC(=O)C1`: “percent change in level” -46% (Olink proximity extension, item: LAIR-2; human FL or MZL patients, plasma; dose not given, week 8 day 1, once-daily dosing; relative to: baseline).
Under “best overall response PR”, `Cc1cc(C)c(CNC(=O)c2cc(Cl)c3c(c2C)O[C@@](C)([C@H]2CC[C@H](N(C)C)CC2)O3)c(=O)[nH]1` is recorded as 18% (IWG 2007 criteria; human, relapsed/refractory angioimmunoblastic T-cell lymphoma; dose not given).
Under “tumour volume difference”, `C=CCn1c(=O)c2cnc(Nc3ccc(N4CCN(C)CC4)cc3)nc2n1-c1ccc2c(n1)[C@@](O)(CC)CC2` is recorded as -19.3 ± 6.4 mm3 (TOV21G xenograft, BALB/c nude mice; oral, 80 mg/kg once daily x 19, day 20).
`CCc1c(C)nc(-c2ccc(Cl)s2)nc1Nc1ccc(CC(=O)O)cc1`: triglyceride content “no effect” (mice, chronic ethanol plus binge, liver; intraperitoneal, 0.3 mg/kg daily, ethanol diet 4 weeks, dosed last two; relative to: vehicle).
For `COC[C@@H](c1ccc(C(F)(F)F)cc1)N1CCN(C2(C)CCN(C(=O)c3c(C)ncnc3C)CC2)C[C@@H]1C`, “change in HIV-1 RNA” read -1.98 log10 copies/mL (HIV-1 infected patients, plasma; dose not given, week 16, with optimized background regimen; relative to: baseline).
For `C[C@]12CC[C@H](O)CC1=CC[C@@H]1[C@@H]2CC[C@]2(C)C(n3cnc4ccccc43)=CC[C@@H]12`, “AR-V7 protein level” read “decreased” (Western blot; male NRG mouse, CWR22Rv1 xenograft, tumour; dose not given, day 16).
`Cc1n[nH]c2ccc(-c3cc(OC[C@@H](N)Cc4ccccc4)cnc3-c3ccoc3)cc12`: “log2 fold change” -0.766 (kinase binding, competitor, MIB/MS competition, item: PBS2; Candida albicans cell lysate; 10 µM; relative to: DMSO).
The concentration of `CCCCc1nc2c(N)nc3ccccc3c2n1Cc1ccc(N)cc1` is reported as ~10 µM (TNF-α release, ELISA; PBMC, human; 24 h).
`N#Cc1ccc2c(-c3ccncc3)c(-c3ccc(F)cc3)nn2c1`: “log2 fold change” -0.367 (kinase binding, competitor, MIB/MS competition, item: CDC7; Candida albicans cell lysate; 10 µM; relative to: DMSO).
`Cn1cc(Nc2nccc(-c3ccc4c(c3)CN(C3COC3)CC[C@H]4NC(=O)c3cn(C(C)(C)C)nn3)n2)cn1`: “pathway activation z-score” 0.378 (item: Endoplasmic Reticulum Stress Pathway; splenic B cells, Mus musculus; 30 mg/kg, together with: IgD activation; relative to: vehicle, direction not given).
`C=C1CC[C@H](OCCCNC(=O)CCOCCOCCOCCOCCOCCOCCOCCOCCOCCOCCOCCOCCOCCOCCOCCOCCOCCOCCOCCOCCOCCOCCOCCOCCOCCOCCOCCOCCOCCOCCOCCOCCOCCOCCOCCOCCNC(=O)CCN2C(=O)CC(SC[C@H](NC(=O)[C@H](CCCNC(=N)N)NC(=O)[C@@H]3CCCN3C(=O)[C@H](CCC(N)=O)NC(=O)[C@H](CC(C)C)NC(=O)[C@H](CCCCN)NC(=O)[C@H](C)NC(=O)[C@@H]3CCCN3C(=O)[C@@H]3CCCN3C(=O)[C@H](CCCCN)NC(=O)[C@H](CCCCN)NC(=O)[C@H](CO)NC(=O)[C@H](CCC(=O)O)NC(=O)[C@H](CCCCN)NC(=O)[C@H](CCCNC(=N)N)NC(=O)[C@H](CCC(N)=O)NC(=O)[C@H](CCC(N)=O)NC(=O)[C@@H](NC(=O)[C@H](CCCNC(=N)N)NC(=O)[C@H](CCC(N)=O)NC(=O)[C@H](Cc3c[nH]cn3)NC(=O)[C@H](CCC(=O)O)NC(=O)[C@@H]3CCCN3C(=O)[C@H](CO)NC(=O)[C@H](CC(C)C)NC(=O)[C@H](Cc3ccccc3)NC(=O)[C@H](CNC(=O)CCCCCCC)NC(=O)[C@H](CO)NC(=O)CN)C(C)C)C(=O)O)C2=O)C/C1=C/C=C1\CCC[C@]2(C)[C@@H]([C@H](C)CCCC(C)(C)O)CC[C@@H]12` (stereo partly shown) — result for protein level: “no effect” (western blot, item: PGC-1α; mice, LLC tumour-bearing, gastrocnemius/plantaris muscle; daily or every other day).
`C[C@H]1[C@H](OC(=O)CCC(=O)O)O[C@@H]2O[C@@]3(C)CC[C@H]4[C@H](C)CC[C@@H]1[C@@]24OO3` — result for “myofibroblast marker expression”: “decreased” (item: ACTA2, POSTN; C57BL/6 mouse, transverse aortic constriction; dose not given, therapeutic dosing).
For `COc1ccc(F)cc1C(=O)NCc1ccc(-c2nn([C@@H](C)C(F)(F)F)c(N)c2C(N)=O)cc1`, “best overall response CR” read 2% (relapsed/refractory CLL patients; dose not given, monotherapy).
`CC(C)[C@H](NC(=O)[C@H](Cc1ccc(O)cc1)NC(=O)[C@H](Cc1ccc(O)cc1)NC(=O)[C@@H]1CCCN1C(=O)[C@H](CCC(=O)O)NC(=O)[C@H](CCC(=O)O)NC(=O)[C@H](Cc1c[nH]c2ccccc12)NC(=O)[C@@H]1CCCN1C(=O)[C@@H](NC(=O)[C@H](CCC(N)=O)NC(=O)c1ccc2c(c1)C(=O)OC21c2ccc(O)cc2Oc2cc(O)ccc21)C(C)C)C(=O)N[C@H](C(=O)N[C@@H](CCCCN)C(=O)N[C@@H](CCCCN)C(=O)N[C@@H](CO)C(=O)N[C@@H](CO)C(=O)NCC(=O)NCC(N)=O)C(C)C` — result for “share of responses”: 35.7% (added benefit of NERVE; human head and neck surgery, nerves; 500 mg, no added benefit; relative to: white light visualisation).
`C[C@H](Oc1ccc(Br)cc1-c1ccon1)C(=O)O` — result for “peak amplitude change”: 13.2% (muscle velocity recovery cycles; human, tibialis anterior muscle; 1200 mg single dose, 3.5 h post-dose, frequency ramp, first response at 15 Hz; relative to: placebo).
`O=C1Nc2cc3[nH]nc(-c4ccncc4)c3cc2CN1Cc1ccccc1`: “stable disease, best response” 100% (RECIST v1.1; human, relapsed or refractory advanced solid tumours; intravenous, 3.6 mg/kg).
`CN[C@@H]1COc2c(S(=O)(=O)NC(=O)Nc3c4c(cc5c3CCC5)CCC4)cnn2C1` has an inhibition of 94.2% (item: IL-18; human participants, whole blood ex vivo; 300 mg twice daily, multiple doses, 8 h, IL-18, circulating, adjusted for, together with: LPS/ATP; relative to: baseline).
The sarcomere length of `O=C(O)CNC(=O)Cc1ccccc1` is reported as 1.7 µm (ventricular cardiomyocytes, C57BL/6 mouse; dose not given, 0.628 s).
The inhibition of `CNCc1cc(-c2ccccc2F)n(S(=O)(=O)c2cccnc2)c1` is reported as 16.7% (esophageal lesions; rat reflux esophagitis model; oral, 0.5 mg/kg).
For `CN(C)C(=O)Oc1cccc([N+](C)(C)C)c1`, the train-of-four ratio was 98.1 (neuromuscular block reversal; rat; dose not given, 17 (unit not given), together with: cisatracurium; relative to: T1 twitch).
`CC(C)[C@H](C(=O)Nc1ccc(C(=O)NO)cc1)c1ccccc1` — result for “tumour growth rate”: -32.2 %/year (volumetric MRI; human, right meningioma; dose not given, day 170).
The PD-L1+ cells of `Cc1sc2c(c1C)C(c1ccc(Cl)cc1)=N[C@@H](CC(=O)NCCCCCCCCNC(=O)COc1cccc3c1C(=O)N(C1CCC(=O)NC1=O)C3=O)c1nnc(C)n1-2` (stereo partly shown) is reported as 1.28% and 0.92% and 1.16% and 0.98% (flow cytometry; mice, 4T1 tumour, tumour; dose not given).
`NC(=O)c1cnc2[nH]ccc2c1N[C@@H]1[C@@H]2CC3C[C@H]1C[C@@](O)(C3)C2` has a percent change of 0.8% (CD4+ CD28+ naive T cells, flow cytometry; Japanese humans, peripheral blood; 20 mg single dose; relative to: baseline).
For `O=C1O[C@H]([C@@H](O)CO)C(O)=C1O`, the inhibition was 55.6% (superoxide scavenging; 120 µM).
`COc1ccc(F)cc1C(=O)NCc1ccc(-c2nn([C@@H](C)C(F)(F)F)c(N)c2C(N)=O)cc1`: “overall response rate” 52% (MCL patients, prior BTK inhibitor; dose not given, efficacy-evaluable patients).
For `N#Cc1ccc2c(c1)[C@H]1CCCN(C(=O)c3ccc4[nH]cnc4c3)[C@H]1C2`, the plasma level was 7.84 nmol/L (item: androstenedione; human male, Phase II trial; oral, 80 mg once daily, last treatment, HPA axis, mean).
`CCCCCN1C[C@H](O)[C@@H](O)[C@H](O)[C@@H]1CO`: “decreased sphingolipid species” 22 (Hexb-/- mouse, plasma; 300 mg/kg/day, unit not given; relative to: 30 mg/kg/day).
`COc1cc(Nc2ncc3c(n2)-c2ccc(Cl)cc2C(c2c(F)cccc2OC)=NC3)ccc1C(=O)O`: “relative tumour volume T/C” 0.73 (mouse, NB-EBc1 neuroblastoma xenograft; oral, 20.8 mg/kg, day 7; relative to: vehicle).
`N#Cc1ccc2c(c1)[C@H]1CCCN(C(=O)c3ccc4[nH]cnc4c3)[C@H]1C2`: “total urinary corticosteroids” 148 % change (human, urine; 40 mg, 336 h, day 14 over day -1; relative to: placebo and baseline).
`C[C@H]1C[C@H]2CSC(N)=N[C@@]2(c2nc(NC(=O)c3ccc(OC(F)F)cn3)cs2)CO1`: “percent change from baseline” -28% (item: Aβ1-40; healthy adults, plasma; 3 mg single dose, 48 h post-dose; relative to: placebo).
`N#Cc1ccn2c(-c3ccncc3)c(-c3ccc(F)cc3)nc2c1` — result for “log2 fold change”: 0.404 (kinase binding, competitor, MIB/MS competition, item: CKA2; Candida albicans cell lysate; 1 µM; relative to: DMSO).
`CC1(C)CCC(c2ccc(Cl)cc2)=C(CN2CCN(c3ccc(C(=O)NS(=O)(=O)c4ccc(N[C@H](CCN5CCOCC5)CSc5ccccc5)c(S(=O)(=O)C(F)(F)F)c4)cc3)CC2)C1` gave an EC50 of 9.4 nM (cell kill, PI exclusion flow cytometry; nodal neoplastic cells, human; 24 h).
